Measurements collected from several papers.
Compare with care: the assays were run in different laboratories. ± gives the spread as reported.
APP: Amyloid-beta precursor protein (APP, Homo sapiens, UniProt P05067)
Sequence of UniProt P05067 (whole entry, looked up): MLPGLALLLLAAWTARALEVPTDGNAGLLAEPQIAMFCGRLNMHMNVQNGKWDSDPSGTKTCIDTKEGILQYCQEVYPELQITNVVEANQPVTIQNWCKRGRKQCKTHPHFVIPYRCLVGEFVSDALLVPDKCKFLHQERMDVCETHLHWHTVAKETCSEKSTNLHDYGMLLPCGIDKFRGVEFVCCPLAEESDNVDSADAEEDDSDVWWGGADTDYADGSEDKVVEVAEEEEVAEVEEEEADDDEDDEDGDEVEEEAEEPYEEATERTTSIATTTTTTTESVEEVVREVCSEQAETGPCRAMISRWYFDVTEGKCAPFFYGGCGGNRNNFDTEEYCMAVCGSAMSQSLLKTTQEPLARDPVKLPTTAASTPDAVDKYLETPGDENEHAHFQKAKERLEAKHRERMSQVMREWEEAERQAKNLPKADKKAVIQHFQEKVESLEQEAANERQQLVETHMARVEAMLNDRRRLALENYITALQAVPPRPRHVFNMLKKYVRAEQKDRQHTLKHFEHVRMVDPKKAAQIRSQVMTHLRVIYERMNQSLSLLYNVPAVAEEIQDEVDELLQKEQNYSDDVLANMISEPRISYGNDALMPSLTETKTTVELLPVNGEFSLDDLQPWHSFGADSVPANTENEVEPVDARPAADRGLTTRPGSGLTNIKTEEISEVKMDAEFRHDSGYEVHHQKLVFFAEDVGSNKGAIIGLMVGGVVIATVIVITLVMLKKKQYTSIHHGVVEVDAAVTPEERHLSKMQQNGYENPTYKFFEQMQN
APP Aβ42 aggregates: Amyloid-beta precursor protein, Aβ42 aggregates (APP, Homo sapiens, UniProt P05067)

`CC[C@H](C)[C@H](NC(=O)[C@@H](NC(=O)C(C)(C)N)C(C)C)C(=O)N[C@@H](C)C(N)=O` gave an inhibition of 66% (APP; amyloid aggregation, inhibitor, fluorescence; 4 µM, 24 h).
The fluorescence intensity of `CN(C)c1ccc(C=C(C#N)C(=O)OCC(O)CO)cc1` (stereo not drawn) is reported as 2.2 fold (APP Aβ42 aggregates; binding, fluorescence spectroscopy; PBS; 4 µM, with: pre-aggregated Aβ(1-42) 5 µM; reference: probe without Aβ).
The band density of `COc1cc(C=CC(=O)CC(=O)C=Cc2ccc(OCC(=O)O)c(OC)c2)ccc1O` is reported as 304 ± 53% (APP; Aβ aggregation, SDS-PAGE western blot, refers to: Aβ1-42 75-200 kDa band; 30 µM, 24 h, 37 °C, with: Aβ1-42 10 µM; reference: DMSO).
With `CC[C@H](C)[C@H](NC(=O)[C@@H](NC(=O)[C@@H](N)C(C)C)C(C)C)C(=O)N[C@@H](C)C(N)=O` the inhibition was 52.1% (APP; amyloid aggregation, inhibitor, fluorescence; 10 µM, 24 h).
`COCCOCCOCCOC(=O)/C(C#N)=C/c1ccc2cc(NCCN3CCOCC3)ccc2c1` has an emission maximum of 540 nm (APP Aβ42 aggregates; fluorescence; with: aggregated Abeta42 5 µM).
`[11CH3]Nc1ccc(-c2nc3ccc(O)cc3o2)cn1` — result for “distribution volume ratio”: 0.75 ± 0.17 (APP; binding, PET, reference Logan; control subjects, white matter; reference: cerebellum).
For `CC[C@H](C)[C@H](NC(=O)[C@H](Cc1ccccc1)NC(=O)[C@@H](N)C(C)C)C(=O)N[C@@H](C)C(N)=O`, the inhibition was 57.2% (APP; amyloid aggregation, inhibitor, fluorescence; 10 µM, 24 h).
`COCCOCCOCCOC(=O)C(C#N)=Cc1ccc(C=Cc2ccc(N(C)C)cc2)cc1` has an excitation maximum of 319 nm (APP Aβ42 aggregates; binding, fluorescence spectroscopy; PBS; 4 µM, with: pre-aggregated Aβ(1-42) 5 µM).
The inhibition of `CC(C)C[C@@H]1NC(=O)CN(C)C(=O)CCCC(=O)NCCCC[C@@H](C(=O)N[C@@H](CCCNC(=N)N)C(N)=O)NC(=O)[C@H](Cc2ccccc2)NC(=O)[C@H](Cc2ccccc2)NC(=O)[C@H](C(C)C)NC1=O` is reported as roughly 95% (Amyloid-beta precursor protein, Aβ40 (APP, Homo sapiens, UniProt P05067); aggregation, ThT fluorescence; 5-fold molar excess, pH 7.4, 37 °C, with: Aβ 40 µM).
`COCCOCCOCCOC(=O)C(C#N)=Cc1ccc2cc(N3CCCCC3)ccc2c1` gave an emission maximum of 538 nm (APP Aβ42 aggregates; binding, fluorescence spectroscopy; PBS; 4 µM, with: pre-aggregated Aβ(1-42) 5 µM).
`COCCOCCOCCOC(=O)/C(C#N)=C/c1ccc2cc(N3CCOCC3)ccc2c1` gave an excitation maximum of 380 nm (APP Aβ42 aggregates; fluorescence; with: aggregated Abeta42 5 µM).
With `CC(=O)N[C@@H](CC(C)C)C(=O)Nc1ccccc1C(=O)N[C@@H](Cc1ccccc1)C(=O)N[C@@H](Cc1ccccc1)C(=O)N[C@@H](CCCCN)C(N)=O` the inhibition was 40% (Amyloid-beta precursor protein, monomer (APP, Homo sapiens, UniProt P05067); amyloid aggregation, inhibitor, fluorescence; 40 µM, pH 7.4).

Excerpt of the above:
`COCCOCCOCCOC(=O)C(C#N)=Cc1ccc2cc(N3CCCCC3)ccc2c1` gave an emission maximum of 538 nm (APP Aβ42 aggregates; binding, fluorescence spectroscopy; PBS; 4 µM, with: pre-aggregated Aβ(1-42) 5 µM).
